{"data": "Measurements from different studies", "target": "Acetylcholinesterase (ACHE, Homo sapiens, UniProt P22303)", "note": "Compare with care: the assays were run in different laboratories. Several values in a cell are separate wells, animals, samples, runs or records. ± gives the spread as reported.", "UniProt P22303, sequence (whole entry, looked up)": "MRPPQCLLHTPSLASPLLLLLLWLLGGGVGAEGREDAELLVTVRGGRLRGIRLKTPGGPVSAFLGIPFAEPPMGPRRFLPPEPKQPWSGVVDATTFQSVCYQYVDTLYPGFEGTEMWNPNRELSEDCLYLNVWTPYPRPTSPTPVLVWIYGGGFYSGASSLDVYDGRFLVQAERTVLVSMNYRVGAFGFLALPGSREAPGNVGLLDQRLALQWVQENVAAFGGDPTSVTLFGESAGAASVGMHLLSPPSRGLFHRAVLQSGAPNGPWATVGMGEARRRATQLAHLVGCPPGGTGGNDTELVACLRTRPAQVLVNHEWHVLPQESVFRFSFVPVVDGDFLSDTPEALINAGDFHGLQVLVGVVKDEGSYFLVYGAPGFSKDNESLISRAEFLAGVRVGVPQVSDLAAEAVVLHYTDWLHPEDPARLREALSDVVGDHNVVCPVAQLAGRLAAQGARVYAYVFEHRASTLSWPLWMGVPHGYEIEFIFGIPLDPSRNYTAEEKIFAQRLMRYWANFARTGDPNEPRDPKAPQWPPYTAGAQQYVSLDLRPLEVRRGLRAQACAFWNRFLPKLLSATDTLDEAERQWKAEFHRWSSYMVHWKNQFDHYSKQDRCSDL"}
{"Compound": "CC1(C)C=Cc2c(cc3oc(-c4ccc(O)cc4)cc(=O)c3c2O)O1", "observed": "enzyme activity", "mode": "inhibitor", "technique": "Ellman", "IC50": "1340 µM"}
{"Compound": "COc1ccc(O)c(/C=N/N2C(=O)c3ccccc3NC2c2cc(OC)ccc2O)c1 (centres unmarked)", "observed": "enzyme activity", "mode": "inhibitor", "technique": "Ellman", "IC50": "32.3 µM"}
{"Compound": "Cc1nc2ccc(NCc3cn(CCCCOC4=CC(=O)c5ccccc5C4=O)nn3)cc2nc1C", "observed": "enzyme activity", "mode": "inhibitor", "technique": "Ellman", "IC50": "15.5 µM"}
{"Compound": "O=C(NCc1ccc[n+](Cc2ccc(C(F)(F)F)cc2)c1)c1ccc(CN2C(=O)c3ccccc3C2=O)cc1", "observed": "enzyme activity", "mode": "inhibitor", "technique": "Ellman", "IC50": "4.13 µM"}
{"Compound": "Cc1ccc(-c2csc(NC3=NC(=O)/C(=C\\c4cccs4)S3)n2)cc1", "observed": "enzyme activity", "mode": "inhibitor", "technique": "Ellman", "IC50": "0.174 µM"}
{"Compound": "COc1ccc2[nH]cc(CCNS(=O)(=O)CCc3cn(-c4cc(C)cc(C)c4)nn3)c2c1", "observed": "enzyme activity", "mode": "inhibitor", "IC50": "4.36 µM"}
{"Compound": "Nn1c(-c2ccc(-n3nc(-c4ccccc4O)nc3-c3ccccc3O)cc2)n[nH]c1=S", "IC50": "0.71 ± 0.16 µM"}
{"Compound": "COc1cc2c(cc1OC)C(=O)/C(=C\\c1ccc([N+](C)(C)C)cc1)C2", "observed": "enzyme activity", "mode": "inhibitor", "IC50": "6 µM"}
{"Compound": "COc1c(OC(=O)N(C)c2cccc(Br)c2)cc2oc3cc4c(c(O)c3c(=O)c2c1CC=C(C)C)C=CC(C)(C)O4", "observed": "enzyme activity", "mode": "inhibitor", "IC50": "15.1 µM"}
{"Compound": "O=C1c2c(O)cc(O)cc2O[C@]2(c3ccc(O)cc3)Oc3cc4oc(-c5ccc(O)c(O)c5)c(O)c(=O)c4c(O)c3[C@]12O", "observed": "enzyme activity", "mode": "inhibitor", "technique": "Ellman", "IC50": "4.97 µM"}
{"Compound": "COc1cc2c(cc1OC)C1C(O)C(OC)C(O)C3=CC[N+](CCl)(C2)C31 (centres unmarked)", "observed": "enzyme activity", "mode": "inhibitor", "setting": "no inhibition observed", "IC50": "264.86 ± 0.23 µM"}
{"Compound": "O=C1c2c(O)cc(O)cc2O[C@@]2(c3ccc(O)c(O)c3)Oc3cc(O)c4c(=O)c(O)c(-c5ccc(O)c(O)c5)oc4c3[C@@]12O", "observed": "enzyme activity", "mode": "inhibitor", "technique": "Ellman", "IC50": "> 50 µM"}
{"Compound": "COc1cc2c(cc1OC)C(=O)/C(=C\\c1ccc(N3CCOCC3)cc1)C2", "observed": "enzyme activity", "mode": "inhibitor", "technique": "Ellman", "IC50": "57.5 µM"}
{"Compound": "O=c1[nH]c2c(O)cccc2c2cc3c(c(O)c12)OCO3", "observed": "enzyme activity", "mode": "inhibitor", "IC50": "107 µM and 171 µM"}
{"Compound": "O=C1c2ccccc2NC(c2cc(Br)ccc2O)N1/N=C/c1cc(Br)ccc1O (centres unmarked)", "observed": "enzyme activity", "mode": "inhibitor", "technique": "Ellman", "IC50": "10.5 µM"}
{"Compound": "O=C(NCc1ccc[n+](Cc2ccc(Cl)cc2Cl)c1)c1ccc(CN2C(=O)c3ccccc3C2=O)cc1", "observed": "enzyme activity", "mode": "inhibitor", "technique": "Ellman", "IC50": "8.33 µM"}
{"Compound": "CCS(=O)(=O)N1CCN(CC(=O)Nc2ccc(/C=C/C(=O)c3ccc(OC)c(OC)c3)cc2)CC1", "observed": "enzyme activity", "mode": "inhibitor", "technique": "Ellman", "IC50": "0.205 µM"}
{"Compound": "CCOc1cccc(N(C)C(=O)Oc2cc3oc4cc5c(c(O)c4c(=O)c3c(CC=C(C)C)c2OC)C=CC(C)(C)O5)c1", "observed": "enzyme activity", "mode": "inhibitor", "IC50": "37.5 µM"}
{"Compound": "O=C1c2c(O)cc(O)cc2O[C@@]2(c3ccc(O)cc3)Oc3cc(O)c4c(=O)c(O)c(-c5ccc(O)c(O)c5)oc4c3[C@@]12O", "observed": "enzyme activity", "mode": "inhibitor", "technique": "Ellman", "IC50": "> 50 µM"}
{"Compound": "CC(=O)C1=NN(c2ccc3c(C)cc(=O)oc3c2)C(=O)C2CCCN12 (centres unmarked)", "observed": "enzyme activity", "mode": "inhibitor", "technique": "Ellman", "IC50": "163 µM"}
{"Compound": "O=C1C=C(OCCCn2cc(CNc3ccc4nccnc4c3)nn2)C(=O)c2ccccc21", "observed": "enzyme activity", "mode": "inhibitor", "technique": "Ellman", "IC50": "16.2 µM"}
{"Compound": "COc1c(OC(=O)N(C)c2ccc(Cl)cc2)cc2oc3cc4c(c(O)c3c(=O)c2c1CC=C(C)C)C=CC(C)(C)O4", "observed": "enzyme activity", "mode": "inhibitor", "IC50": "43.6 µM"}
{"Compound": "Fc1ccc(N2CCN(Cc3nnc(-c4ccccc4)o3)CC2)cc1", "observed": "enzyme activity", "mode": "inhibitor", "technique": "Ellman", "IC50": "2.19 µM"}
{"Compound": "O=C(O)CCCC(=O)O", "IC50": "893 µM"}
{"Compound": "OC1C=C2C3CN(Cc4cc5c(cc43)OCO5)C2CC1O (centres unmarked)", "observed": "enzyme activity", "mode": "inhibitor", "IC50": "801 µM"}
{"Compound": "COC(=O)CCC1NC(C(C)=O)=NN(c2ccc3c(C)cc(=O)oc3c2)C1=O (centres unmarked)", "observed": "enzyme activity", "mode": "inhibitor", "technique": "Ellman", "IC50": "129 µM"}
{"Compound": "COc1cc2c(cc1OC)C(=O)C(=Cc1ccc(N3CCN(C)CC3)cc1)C2", "observed": "enzyme activity", "mode": "inhibitor", "technique": "Ellman", "IC50": "0.9 µM"}
{"Compound": "CCN1CCN(C(=NNc2ccc3c(C)cc(=O)oc3c2)C(C)=O)CC1", "observed": "enzyme activity", "mode": "inhibitor", "technique": "Ellman", "IC50": "216 µM"}
{"Compound": "COc1c(OC(=O)N(C)c2ccc(Br)cc2)cc2oc3cc4c(c(O)c3c(=O)c2c1CC=C(C)C)C=CC(C)(C)O4", "observed": "enzyme activity", "mode": "inhibitor", "IC50": "40.6 µM"}
{"Compound": "O=C1c2c(O)cc(O)cc2O[C@]2(c3ccc(O)c(O)c3)Oc3cc4oc(-c5ccc(O)cc5)c(O)c(=O)c4c(O)c3[C@]12O", "observed": "enzyme activity", "mode": "inhibitor", "technique": "Ellman", "IC50": "32.9 µM"}
{"Compound": "CC(=O)C1=NN(c2ccc3c(C)cc(=O)oc3c2)C(=O)C(Cc2ccccc2)N1 (centres unmarked)", "observed": "enzyme activity", "mode": "inhibitor", "technique": "Ellman", "IC50": "442 µM"}
{"Compound": "Cc1nc2ccc(NCc3cn(CCCCCCOC4=CC(=O)c5ccccc5C4=O)nn3)cc2nc1C", "observed": "enzyme activity", "mode": "inhibitor", "technique": "Ellman", "IC50": "9 µM"}
{"Compound": "COc1cc2c(cc1OC)C(=O)C(=Cc1ccc(N3CC[N+](C)(C)CC3)cc1)C2", "observed": "enzyme activity", "mode": "inhibitor", "technique": "Ellman", "IC50": "0.1 µM"}
{"Compound": "O=C1c2c(O)cc(O)cc2O[C@]2(c3ccc(O)c(O)c3)Oc3cc(O)c4c(=O)c(O)c(-c5ccc(O)cc5)oc4c3[C@]12O", "observed": "enzyme activity", "mode": "inhibitor", "technique": "Ellman", "IC50": "10.7 µM"}
{"Compound": "S=C(NCc1ccccn1)NCc1ccccn1", "observed": "enzyme activity", "mode": "inhibitor", "IC50": "317 µM"}
{"note": "Some of these lines once more:"}
{"Compound": "O=C(NCc1ccc[n+](Cc2ccc(Cl)cc2Cl)c1)c1ccc(CN2C(=O)c3ccccc3C2=O)cc1", "observed": "enzyme activity", "mode": "inhibitor", "technique": "Ellman", "IC50": "8.33 µM"}
{"Compound": "CCS(=O)(=O)N1CCN(CC(=O)Nc2ccc(/C=C/C(=O)c3ccc(OC)c(OC)c3)cc2)CC1", "observed": "enzyme activity", "mode": "inhibitor", "technique": "Ellman", "IC50": "0.205 µM"}
{"Compound": "CCOc1cccc(N(C)C(=O)Oc2cc3oc4cc5c(c(O)c4c(=O)c3c(CC=C(C)C)c2OC)C=CC(C)(C)O5)c1", "observed": "enzyme activity", "mode": "inhibitor", "IC50": "37.5 µM"}
{"Compound": "O=C1c2c(O)cc(O)cc2O[C@@]2(c3ccc(O)cc3)Oc3cc(O)c4c(=O)c(O)c(-c5ccc(O)c(O)c5)oc4c3[C@@]12O", "observed": "enzyme activity", "mode": "inhibitor", "technique": "Ellman", "IC50": "> 50 µM"}
{"Compound": "CC(=O)C1=NN(c2ccc3c(C)cc(=O)oc3c2)C(=O)C2CCCN12 (centres unmarked)", "observed": "enzyme activity", "mode": "inhibitor", "technique": "Ellman", "IC50": "163 µM"}
